Measurements pooled from the literature.
Parts stem from different laboratories: compare values within a part only. Substitutions count along the parent as printed.

Set 1 — technique: protein binding microarray; form: double-stranded DNA, one strand shown; sample: in vitro; tested at: not given; relative to: not given; direction: higher = stronger binding
Target: Histone acetyltransferase KAT6A, winged helix 1, GST fusion (KAT6A, Homo sapiens, UniProt Q92794, residues 1-85)
Notes: 8-mer, flanks averaged, mean of 2 arrays, mostly near background
Residues (chain): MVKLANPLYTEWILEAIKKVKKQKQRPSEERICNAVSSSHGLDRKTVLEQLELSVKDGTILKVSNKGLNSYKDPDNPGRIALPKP
For `CACCAAGA`, the E-score was -0.184.
The E-score of `AGTGTAGA` is reported as -0.186.
`ATTAATCA` has an E-score of -0.208.
With `AATAGTCG` the E-score was 0.0491.
For `CCGCATCG`, the E-score was 0.313.
The E-score of `AAATCAAA` is reported as -0.135.
For `CCCATCCA`, the E-score was -0.241.
With `GTTTGGAA` the E-score was -0.133.
With `CAAGCACG` the E-score was 0.0516.
`CAGTTAGG` has an E-score of -0.203.
For `CGTTTACA`, the E-score was 0.0683.
`ATCGGGAG` gave an E-score of 0.0637.
With `TAATATAA` the E-score was -0.00931.
The E-score of `CTACCGGC` is reported as 0.271.
With `GCATAGCC` the E-score was -0.0159.
For `CAGATCCG`, the E-score was 0.114.
`GGCCGACC` gave an E-score of 0.268.
`CAGGTTGA` gave an E-score of -0.0535.
With `GCTGAGAC` the E-score was -0.0866.
`GGGGAGAA` gave an E-score of -0.0175.

Set 2 — target: CCNA1, cyclin fold, Cln2 fusion (human); technique: yeast growth competition, sequencing; sample: yeast; notes: weak parent motif; relative to: not given; direction: higher = stronger binding
Starting sequence: MICAL3 docking peptide (human); LQLRRQLSFSEDS; partner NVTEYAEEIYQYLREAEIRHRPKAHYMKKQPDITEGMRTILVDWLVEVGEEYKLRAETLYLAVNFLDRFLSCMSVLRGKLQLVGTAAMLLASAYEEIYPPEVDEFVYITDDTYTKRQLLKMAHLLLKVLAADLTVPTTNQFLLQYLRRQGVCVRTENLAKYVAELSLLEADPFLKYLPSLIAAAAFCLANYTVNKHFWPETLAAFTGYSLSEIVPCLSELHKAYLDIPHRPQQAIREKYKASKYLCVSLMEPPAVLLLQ
`LQLRRQLSQSEDS [F9Q]`: “normalised enrichment score” 0.397.
`LQLRRQLSFGEDS [S10G]` — result for “normalised enrichment score”: 0.655.
For `LQLRKQLSFSEDS [R5K]`, “normalised enrichment score” read 0.182.
`LQLRRQTSFSEDS [L7T]`: “normalised enrichment score” 0.0728.
`LQLRQQLSFSEDS [R5Q]`: “normalised enrichment score” 0.143.
Under “normalised enrichment score”, `LQLRRRLSFSEDS [Q6R]` is recorded as 0.949.
`LQLRRQPSFSEDS [L7P]` — result for “normalised enrichment score”: 0.109.
`LQLRRQLSFSMDS [E11M]` — result for “normalised enrichment score”: -0.0362.
Under “normalised enrichment score”, `LQLRIQLSFSEDS [R5I]` is recorded as 0.352.
For `LQLRRKLSFSEDS [Q6K]`, “normalised enrichment score” read 0.345.
`LQLRRQLSPSEDS [F9P]`: “normalised enrichment score” 0.338.
`LQLRRQVSFSEDS [L7V]`: “normalised enrichment score” 0.358.
Under “normalised enrichment score”, `LTLRRQLSFSEDS [Q2T]` is recorded as 0.384.
`LQLRRQFSFSEDS [L7F]`: “normalised enrichment score” -0.276.
`LQLRRQLSWSEDS [F9W]`: “normalised enrichment score” 0.115.

Set 3 — technique: RNA Bind-n-Seq; form: RNA; sample: in vitro; tested at: 20 nM; notes: 6-mer, flanks averaged, single round; added: 150 mM KCl; relative to: input library; direction: higher = stronger binding
Target: TAR DNA-binding protein 43, full length, His tag (TARDBP, Homo sapiens, UniProt Q13148, residues 1-414)
`GCUACG`: “6-mer enrichment (R)” 0.963.
`UAAUGG`: “6-mer enrichment (R)” 0.933.
Under “6-mer enrichment (R)”, `CCCCGU` is recorded as 0.654.
For `UUUGUG`, “6-mer enrichment (R)” read 0.982.
For `UCACCA`, “6-mer enrichment (R)” read 0.63.
`CCACGU` — result for “6-mer enrichment (R)”: 0.678.
For `GGUUAC`, “6-mer enrichment (R)” read 0.839.
`UUAUCA` — result for “6-mer enrichment (R)”: 0.552.
For `UUAACA`, “6-mer enrichment (R)” read 0.586.
`CUCGUC`: “6-mer enrichment (R)” 0.586.

Set 4 — technique: protein-binding microarray; form: double-stranded DNA, one strand shown; sample: in vitro; tested at: 250 nM; notes: 60-bp whole probe; added: salmon DNA 0.4 mg/ml; relative to: random background probes; direction: higher = stronger binding; constant ends, left off below: GCCTAGCAC … GTCTTGATTCGCTTGACGCTGCTG
Target: Interferon regulatory factor 7, full length, phosphomimetic (IRF7, Homo sapiens, UniProt Q92985, residues 1-503, S101K/S471D/S472D/S475D/S476D/S477D/S483D/S484D/S487D)
Target sequence (chain): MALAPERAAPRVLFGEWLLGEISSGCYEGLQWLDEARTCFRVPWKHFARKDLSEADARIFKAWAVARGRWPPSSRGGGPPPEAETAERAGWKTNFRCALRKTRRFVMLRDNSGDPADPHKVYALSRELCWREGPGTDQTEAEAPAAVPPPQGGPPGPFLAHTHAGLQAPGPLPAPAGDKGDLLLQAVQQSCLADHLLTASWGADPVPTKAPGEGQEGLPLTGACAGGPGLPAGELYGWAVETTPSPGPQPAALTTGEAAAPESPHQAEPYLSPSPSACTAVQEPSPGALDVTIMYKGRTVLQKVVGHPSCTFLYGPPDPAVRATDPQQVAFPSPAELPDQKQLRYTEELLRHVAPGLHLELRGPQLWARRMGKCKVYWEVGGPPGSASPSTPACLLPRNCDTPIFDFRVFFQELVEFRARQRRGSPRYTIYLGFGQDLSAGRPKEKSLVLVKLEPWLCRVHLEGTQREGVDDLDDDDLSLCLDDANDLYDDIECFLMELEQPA
With `GACGGTTTCGGTATCGGAACGTGCTAG` the log fluorescence was 11.1 z-score.
For `GACGGTTCCAGTTTCGAGACGTGCTAG`, the log fluorescence was 4.88 z-score.
`TTAGAATTGAGTTTCGATTAGTGCTAG` gave a log fluorescence of 7.97 z-score.
`TTAGATTTCAGTATCGACTAGTGCTAG` gave a log fluorescence of 0.453 z-score.
With `GACGGTATCGGGACTGGGCACGTGCTA` the log fluorescence was -0.405 z-score.
The log fluorescence of `TTAGGTTCCCTTTTCCTTGAGTGCTAG` is reported as 4.17 z-score.
With `GACGGTCTCCTTTTCCTCACGTGCTAG` the log fluorescence was 1.49 z-score.
With `TTAGGTCTGGGTCTCGGTTAGTGCTAG` the log fluorescence was 0.681 z-score.
`TCAAAAATGGAAACTCGTACTGTGCTA` gave a log fluorescence of 0.848 z-score.
For `TTATGTCTCGGTATCGGTTAGTGCTAG`, the log fluorescence was 2.16 z-score.
`TTAGGTCTCCTTCTCCTTCAGTGCTAG` has a log fluorescence of 0.35 z-score.
For `GACGGACTGGGGACTGTGGACGTGCTA`, the log fluorescence was -0.635 z-score.

Set 5 — technique: DHFR PCA, deep sequencing; sample: yeast; added: (+)-ABA 0.11 µM; relative to: wild-type fitted maximum; direction: higher = stronger binding
Target: ABI1, truncated, D143A, DHFR fusion (Arabidopsis thaliana)
Notes: methotrexate growth selection, single substitutions
Starting sequence: PYL1, truncated, DHFR fusion (Arabidopsis thaliana); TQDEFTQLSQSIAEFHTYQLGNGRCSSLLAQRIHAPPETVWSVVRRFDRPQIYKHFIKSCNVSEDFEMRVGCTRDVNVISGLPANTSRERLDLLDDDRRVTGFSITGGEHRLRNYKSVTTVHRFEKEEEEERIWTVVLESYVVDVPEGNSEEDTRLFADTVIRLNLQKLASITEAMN; partner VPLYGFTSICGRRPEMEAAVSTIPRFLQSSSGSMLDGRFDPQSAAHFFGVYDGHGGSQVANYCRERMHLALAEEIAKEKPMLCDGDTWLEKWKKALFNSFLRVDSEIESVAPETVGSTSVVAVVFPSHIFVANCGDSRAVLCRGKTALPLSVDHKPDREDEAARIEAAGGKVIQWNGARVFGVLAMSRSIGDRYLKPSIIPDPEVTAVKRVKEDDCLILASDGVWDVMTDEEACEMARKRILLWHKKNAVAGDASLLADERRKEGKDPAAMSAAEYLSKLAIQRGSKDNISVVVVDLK
`E64Q` — result for “relative binding score”: 45.9%.
Under “relative binding score”, `I133M` is recorded as 31%.
`P146M`: “relative binding score” 23.7%.
Under “relative binding score”, `D153E` is recorded as 33.9%.
`R155F` — result for “relative binding score”: -4.73%.
Under “relative binding score”, `I172V` is recorded as 58.9%.
For `Q19S`, “relative binding score” read 36.6%.
For `V44Y`, “relative binding score” read -1%.
Under “relative binding score”, `Q7W` is recorded as 36.5%.
Under “relative binding score”, `K54N` is recorded as 3.05%.
Under “relative binding score”, `I33Y` is recorded as 0.59%.

Set 6 — technique: competition protein-binding microarray; form: double-stranded DNA, one strand shown; sample: in vitro; tested at: 2 µM; added: Cbf1 competitor, 0.05 µM; direction: higher = stronger binding; constant ends, left off below: … GTCTTGATTCGCTTGACGCTGCTG
Target: Phosphate system positive regulatory protein PHO4, full length, GST-tagged (PHO4, Saccharomyces cerevisiae, UniProt P07270, residues 1-312)
Notes: whole 60-bp probe, lowest competitor level
Construct (chain): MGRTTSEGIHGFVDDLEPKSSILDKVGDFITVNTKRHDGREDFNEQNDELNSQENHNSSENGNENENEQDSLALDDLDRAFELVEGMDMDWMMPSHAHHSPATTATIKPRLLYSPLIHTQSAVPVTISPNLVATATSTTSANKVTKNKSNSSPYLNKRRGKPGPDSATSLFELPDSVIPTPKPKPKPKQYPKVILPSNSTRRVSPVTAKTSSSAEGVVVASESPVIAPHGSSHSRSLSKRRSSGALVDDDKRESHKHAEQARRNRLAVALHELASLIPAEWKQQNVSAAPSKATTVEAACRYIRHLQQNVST
With `CTTCTGTAAATTTGTCACCCAACTTGACGCGCCCCG` the fluorescence intensity was 3110 a.u.
With `AAAACTTGGTTATCGCACGCTGAAAAGCGCGTTCTC` the fluorescence intensity was 6360 a.u.
With `AAATTACTAAGTTTACACGTGTTTTACCCCGTATGA` the fluorescence intensity was 18500 a.u.
For `CGGTAACATTTGAAACATGTGCCAGACTCCGAATGG`, the fluorescence intensity was 11100 a.u.
`CATACCCAACCTTGTCACAACACTTAAGATATTTGT` has a fluorescence intensity of 4010 a.u.
With `CTTCTGTAAATTTGTTTAGTGGGTGGACGCGCCCCG` the fluorescence intensity was 3990 a.u.
`AACTAAACCTCTTCGTGCGTGATGGAGTTGGAAACG` gave a fluorescence intensity of 8090 a.u.
`CTTTCCCGATCTTGTATCGTGGGTGTAGCACATTTG` has a fluorescence intensity of 7440 a.u.
The fluorescence intensity of `CCACCCCAATTCCATCACGTCCATACCAGGGGCGTA` is reported as 5040 a.u.
With `GTCTTGTCTCATTGTGAAGTGGGTGTCCCCACTTCA` the fluorescence intensity was 4610 a.u.
`CTTGCCTACATATATTTCGTGCGATTTCAAAAATAA` has a fluorescence intensity of 5500 a.u.
With `GTCTTGTCTCATTGTATGGTGGGTGTCCCCACTTCA` the fluorescence intensity was 5210 a.u.
For `AAGGATACACAAAGGCAGGTGATTCCTGACTACCAA`, the fluorescence intensity was 3670 a.u.
For `CGGGGTTAAGTTTCCCACGTGTTTTGCTTGCAGCAG`, the fluorescence intensity was 16100 a.u.
`TGTGGATCATATCACCACGTGTTTTTTCAATCCTTT` gave a fluorescence intensity of 16600 a.u.
`CTTTTAACTTGCCTGCATGTGTGGAGTTACAAATTA` has a fluorescence intensity of 8020 a.u.
`CTTTCCCGATCTTTTCACGTGGGGTTAGCACATTTG` has a fluorescence intensity of 16600 a.u.

Single results of other studies
`P4HB (Homo sapiens, UniProt P07237)`: cross-linked residues “D83 to K189” (ARMCX4 (Homo sapiens, UniProt Q5H9R4); cross-linking MS; cell fractions; added: DMTMM).
